Measured values of several laboratories.
Lines come from different studies, so protocols differ. ± marks the error that the study gave.
USP51 ZnF-UBD domain: Ubiquitin carboxyl-terminal hydrolase 51, ZnF-UBD domain (USP51, Homo sapiens, UniProt Q70EK9)
Chain of UniProt Q70EK9 (whole entry, looked up): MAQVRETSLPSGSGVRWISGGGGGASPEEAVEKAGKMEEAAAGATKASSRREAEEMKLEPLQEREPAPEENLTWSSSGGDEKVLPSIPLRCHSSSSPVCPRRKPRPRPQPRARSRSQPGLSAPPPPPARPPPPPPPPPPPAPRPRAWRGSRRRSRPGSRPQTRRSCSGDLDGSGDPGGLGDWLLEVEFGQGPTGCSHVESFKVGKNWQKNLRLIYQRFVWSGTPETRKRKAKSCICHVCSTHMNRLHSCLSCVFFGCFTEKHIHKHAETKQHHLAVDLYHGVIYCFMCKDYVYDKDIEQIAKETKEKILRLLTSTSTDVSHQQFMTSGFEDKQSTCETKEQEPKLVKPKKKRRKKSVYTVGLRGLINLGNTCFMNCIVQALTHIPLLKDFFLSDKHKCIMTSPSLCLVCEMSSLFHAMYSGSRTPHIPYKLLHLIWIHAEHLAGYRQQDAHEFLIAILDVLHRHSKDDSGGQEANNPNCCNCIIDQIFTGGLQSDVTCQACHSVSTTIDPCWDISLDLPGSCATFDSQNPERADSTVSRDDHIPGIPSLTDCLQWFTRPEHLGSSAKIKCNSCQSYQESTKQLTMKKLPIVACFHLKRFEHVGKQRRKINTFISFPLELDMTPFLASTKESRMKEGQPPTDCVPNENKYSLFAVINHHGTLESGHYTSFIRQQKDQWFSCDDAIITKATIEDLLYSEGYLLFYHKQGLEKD
Kir3.1/Kir3.2: Kir3.1/Kir3.2 (Homo sapiens, UniProt P48051+P48549)
Chain of UniProt P48051 (whole entry, looked up): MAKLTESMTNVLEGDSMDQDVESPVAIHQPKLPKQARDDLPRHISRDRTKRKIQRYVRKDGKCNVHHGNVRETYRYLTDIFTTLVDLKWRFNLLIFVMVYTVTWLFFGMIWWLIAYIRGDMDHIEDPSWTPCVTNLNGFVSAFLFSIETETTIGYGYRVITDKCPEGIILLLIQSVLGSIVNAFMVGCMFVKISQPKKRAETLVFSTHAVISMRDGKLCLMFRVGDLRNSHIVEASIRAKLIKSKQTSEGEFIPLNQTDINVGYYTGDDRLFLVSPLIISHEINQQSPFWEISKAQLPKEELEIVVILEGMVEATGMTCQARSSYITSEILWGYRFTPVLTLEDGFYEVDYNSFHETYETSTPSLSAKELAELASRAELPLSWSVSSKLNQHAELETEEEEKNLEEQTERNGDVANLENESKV
Chain of UniProt P48549 (whole entry, looked up): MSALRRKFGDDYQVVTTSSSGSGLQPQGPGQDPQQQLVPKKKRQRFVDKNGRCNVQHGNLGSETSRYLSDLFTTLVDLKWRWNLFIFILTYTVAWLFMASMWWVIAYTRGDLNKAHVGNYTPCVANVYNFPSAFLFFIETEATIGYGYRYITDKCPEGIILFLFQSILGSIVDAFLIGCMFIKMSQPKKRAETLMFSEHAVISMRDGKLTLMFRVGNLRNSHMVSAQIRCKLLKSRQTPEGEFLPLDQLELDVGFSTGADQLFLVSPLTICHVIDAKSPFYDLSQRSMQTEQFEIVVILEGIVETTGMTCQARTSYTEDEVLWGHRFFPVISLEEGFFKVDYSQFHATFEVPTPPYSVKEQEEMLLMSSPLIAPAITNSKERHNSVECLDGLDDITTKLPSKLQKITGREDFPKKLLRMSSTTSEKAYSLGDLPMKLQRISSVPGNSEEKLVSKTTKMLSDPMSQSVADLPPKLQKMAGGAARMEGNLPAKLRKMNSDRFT
HDAC10: Polyamine deacetylase HDAC10 (HDAC10, Homo sapiens, UniProt Q969S8)
Chain of UniProt Q969S8 (whole entry, looked up): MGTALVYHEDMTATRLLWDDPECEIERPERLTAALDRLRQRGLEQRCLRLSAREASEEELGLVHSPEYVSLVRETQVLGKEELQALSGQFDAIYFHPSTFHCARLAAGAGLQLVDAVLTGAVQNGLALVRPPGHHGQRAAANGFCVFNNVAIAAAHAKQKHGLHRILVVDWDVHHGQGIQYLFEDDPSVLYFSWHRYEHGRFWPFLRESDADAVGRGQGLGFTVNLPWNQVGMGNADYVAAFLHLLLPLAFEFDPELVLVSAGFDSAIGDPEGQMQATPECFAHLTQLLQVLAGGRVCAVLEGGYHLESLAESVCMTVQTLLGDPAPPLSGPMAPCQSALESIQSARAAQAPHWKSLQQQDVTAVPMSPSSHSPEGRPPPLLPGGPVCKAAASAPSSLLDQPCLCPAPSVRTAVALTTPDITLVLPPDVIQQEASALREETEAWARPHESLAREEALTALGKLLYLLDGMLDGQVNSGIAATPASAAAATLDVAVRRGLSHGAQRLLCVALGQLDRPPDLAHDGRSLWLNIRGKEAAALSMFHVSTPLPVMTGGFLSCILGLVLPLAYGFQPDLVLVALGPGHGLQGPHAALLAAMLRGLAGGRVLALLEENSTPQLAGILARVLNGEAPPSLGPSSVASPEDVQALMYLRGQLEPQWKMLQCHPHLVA
GAP50: Glideosome-associated protein 50 (GAP50, Plasmodium falciparum, UniProt Q8I2X3)
Chain of UniProt Q8I2X3 (whole entry, looked up): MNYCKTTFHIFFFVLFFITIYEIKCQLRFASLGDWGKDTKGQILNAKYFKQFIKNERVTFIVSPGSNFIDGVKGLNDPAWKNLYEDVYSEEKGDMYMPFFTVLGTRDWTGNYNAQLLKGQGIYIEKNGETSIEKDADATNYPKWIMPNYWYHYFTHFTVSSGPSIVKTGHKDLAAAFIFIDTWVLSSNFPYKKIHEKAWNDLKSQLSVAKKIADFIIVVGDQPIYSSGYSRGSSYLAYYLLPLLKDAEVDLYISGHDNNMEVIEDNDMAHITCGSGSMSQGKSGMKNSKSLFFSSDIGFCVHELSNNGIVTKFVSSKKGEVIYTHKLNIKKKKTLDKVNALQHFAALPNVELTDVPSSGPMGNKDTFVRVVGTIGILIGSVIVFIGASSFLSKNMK
CDK9: Cyclin-dependent kinase 9 (CDK9, Homo sapiens, UniProt P50750)
Chain of UniProt P50750 (whole entry, looked up): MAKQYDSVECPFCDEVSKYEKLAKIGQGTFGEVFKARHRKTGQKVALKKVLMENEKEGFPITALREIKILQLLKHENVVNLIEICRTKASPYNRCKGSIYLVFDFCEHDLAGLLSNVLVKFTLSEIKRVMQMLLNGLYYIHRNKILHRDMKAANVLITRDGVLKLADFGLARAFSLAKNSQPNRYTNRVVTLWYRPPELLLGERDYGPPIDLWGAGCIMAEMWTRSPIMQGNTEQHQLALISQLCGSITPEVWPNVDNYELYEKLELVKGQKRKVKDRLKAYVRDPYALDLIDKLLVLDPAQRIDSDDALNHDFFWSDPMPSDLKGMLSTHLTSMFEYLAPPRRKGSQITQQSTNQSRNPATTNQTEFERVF
Chain of UniProt P10636 (whole entry, looked up): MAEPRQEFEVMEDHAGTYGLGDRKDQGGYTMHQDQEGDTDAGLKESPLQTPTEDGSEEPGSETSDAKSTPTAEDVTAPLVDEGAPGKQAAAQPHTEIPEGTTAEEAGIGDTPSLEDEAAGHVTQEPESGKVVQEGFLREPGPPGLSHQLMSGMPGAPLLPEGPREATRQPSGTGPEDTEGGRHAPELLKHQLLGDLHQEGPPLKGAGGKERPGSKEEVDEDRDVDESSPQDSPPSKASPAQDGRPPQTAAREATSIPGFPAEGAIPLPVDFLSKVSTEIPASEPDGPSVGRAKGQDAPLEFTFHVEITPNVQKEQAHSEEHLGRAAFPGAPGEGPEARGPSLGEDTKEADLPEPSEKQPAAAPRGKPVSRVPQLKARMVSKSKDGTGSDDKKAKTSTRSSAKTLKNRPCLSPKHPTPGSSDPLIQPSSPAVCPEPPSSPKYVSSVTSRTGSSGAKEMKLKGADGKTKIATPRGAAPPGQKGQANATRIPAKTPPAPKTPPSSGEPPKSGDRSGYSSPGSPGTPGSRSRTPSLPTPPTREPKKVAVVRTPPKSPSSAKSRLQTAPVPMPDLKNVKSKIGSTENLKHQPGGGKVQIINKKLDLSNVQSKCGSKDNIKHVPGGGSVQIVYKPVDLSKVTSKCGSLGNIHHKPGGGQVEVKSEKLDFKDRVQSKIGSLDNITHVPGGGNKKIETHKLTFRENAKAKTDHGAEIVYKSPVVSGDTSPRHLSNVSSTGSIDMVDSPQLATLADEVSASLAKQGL
Chain of UniProt Q8IU85 (whole entry, looked up): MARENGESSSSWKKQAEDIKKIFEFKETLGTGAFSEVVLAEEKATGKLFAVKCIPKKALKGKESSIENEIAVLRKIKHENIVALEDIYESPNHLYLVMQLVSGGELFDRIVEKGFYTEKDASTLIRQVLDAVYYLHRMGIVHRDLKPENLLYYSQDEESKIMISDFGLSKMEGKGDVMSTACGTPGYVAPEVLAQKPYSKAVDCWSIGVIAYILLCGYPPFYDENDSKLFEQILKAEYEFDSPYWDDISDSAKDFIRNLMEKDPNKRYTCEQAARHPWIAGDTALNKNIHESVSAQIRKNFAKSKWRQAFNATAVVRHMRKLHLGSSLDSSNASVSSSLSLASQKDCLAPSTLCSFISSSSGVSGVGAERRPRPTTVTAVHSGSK
Chain of UniProt P00388 (whole entry, unmodified, looked up): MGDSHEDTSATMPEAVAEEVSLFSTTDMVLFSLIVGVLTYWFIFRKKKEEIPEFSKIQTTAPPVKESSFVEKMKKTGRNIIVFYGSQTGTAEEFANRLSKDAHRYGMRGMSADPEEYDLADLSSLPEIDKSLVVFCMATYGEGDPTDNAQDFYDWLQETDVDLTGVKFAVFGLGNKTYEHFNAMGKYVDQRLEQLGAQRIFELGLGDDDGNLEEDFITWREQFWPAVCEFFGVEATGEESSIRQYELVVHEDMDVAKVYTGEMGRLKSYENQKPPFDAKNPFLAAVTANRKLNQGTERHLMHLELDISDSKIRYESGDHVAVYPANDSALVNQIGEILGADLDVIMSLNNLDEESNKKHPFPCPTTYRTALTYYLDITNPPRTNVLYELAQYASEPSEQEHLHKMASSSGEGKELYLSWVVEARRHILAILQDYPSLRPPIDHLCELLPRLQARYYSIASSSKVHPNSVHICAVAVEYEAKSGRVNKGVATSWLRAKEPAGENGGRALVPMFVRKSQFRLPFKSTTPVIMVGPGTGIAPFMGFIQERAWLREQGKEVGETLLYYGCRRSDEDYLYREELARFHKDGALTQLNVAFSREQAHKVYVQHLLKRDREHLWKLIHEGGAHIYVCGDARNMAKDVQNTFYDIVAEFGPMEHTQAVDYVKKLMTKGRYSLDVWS

SMILES | target | assay | system | setting | how to read | quantity | result
CCOC(C)=O | uncharacterized protein (Drosophila suzukii, UniProt A0AB39ZCT4) | binding, bis-ANS competition fluorescence |  | pH 7.4, added: bis-ANS |  | IC50 | > 50 µM
O=C(O)CCC(=O)c1ccc(S(=O)(=O)N2CCCC2)cc1 | USP51 ZnF-UBD domain |  |  |  |  | Kd | > 1000 µM
O=C(COP(=O)(O)O)[C@@H](O)[C@H](O)[C@H](O)COP(=O)(O)O | Pyruvate kinase PKM (PKM, Homo sapiens, UniProt P14618) | enzyme activity, activator | A549 cell lysate | added: 0.2 mM PEP, 2 mM ADP |  | AC50 | 0.0487 ± 0.003 µM
CCc1cc(NC(=O)COc2cc(Cl)ccc2Cl)n(C2CCC(F)(F)CC2)n1 | Kir3.1/Kir3.2 | activator, thallium flux | HEK293 |  |  | EC50 | 0.045 µM
COc1ccc2nc(/N=N/c3ccc(N(C)C)cc3)sc2c1 | Microtubule-associated protein tau, fibrils (MAPT, Homo sapiens, UniProt P10636) | thioflavin S displacement, fluorescence | synthetic 2N4R tau filaments | added: thioflavin S |  | AC50 | 0.031 ± 0.006 µM
COc1cc[nH]c1/C=C1\C(=O)Nc2ccc([N+](=O)[O-])c(N3CC[C@@H](O)C3)c21 | CMGC kinase panel | enzyme activity, KinaseProfiler |  | 1 µM | relative to: DMSO | remaining activity | < 50%
CN(CCCCCCNC(=O)COc1ccc(C2CCC(=O)NC2=O)cc1)Cc1cn(Cc2ccc(C(=O)NO)cc2)c2ccccc12 (centres unmarked) | HDAC10 | degrader, western blot | MM1.S cells | 24 h |  | DC50 | 0.0079 ± 0.0033 µM
CCOc1ccc(-c2nc(CNCCc3ccc(F)cc3)cs2)cc1 | GAP50 | binding, surface plasmon resonance |  | 1:1 binding model |  | Kd | 40.3 µM
O=C(O)CNC(=O)c1ccc(S(=O)(=O)N2CCC(n3c(=O)oc4ccccc43)CC2)cc1 | USP51 ZnF-UBD domain |  |  |  |  | Kd | > 1000 µM
CCCCOC(=O)CCC(C)=O | uncharacterized protein (Bradysia odoriphaga, UniProt A0A2S0X9G4) | binding, competitive fluorescence displacement |  |  |  | Ki | > 50 µM
CC(C)(C)c1cnc(CSc2cnc(NC(=O)C3CCN(C(=O)CCCCCCN4Cc5cc6c(cc5C4)C(=O)N(C4CCC(=O)NC4=O)C6=O)CC3)s2)o1 (centres unmarked) | CDK9 | degrader, Western blot | SK-UT-1 uterine leiomyosarcoma | 6 h |  | DC50 | < 0.01 µM
O=C(Nc1nnc(-c2ccc(Cl)s2)o1)c1ccc(Cl)s1 | GAP50 | binding, surface plasmon resonance |  | 1:1 binding model |  | Kd | 63.2 µM
C/C1=C\CC/C(C)=C/CC(C)(C)/C=C/C1 | uncharacterized protein (Bradysia odoriphaga, UniProt A0A2S0X9G4) | binding, competitive fluorescence displacement |  |  |  | Ki | > 50 µM
NS(=O)(=O)c1ccc(NCC(=O)O)cc1 | USP51 ZnF-UBD domain |  |  |  |  | Kd | > 1000 µM
CC[C@@H]1[C@H](F)C(=O)N[C@@H]1COc1nccc2cc(C(N)=O)c(OC)cc12 | CAMK1D (Homo sapiens, UniProt Q8IU85) | ATP-site probe binding, ActivX profiling | THP-1 cell lysate | Lys2 site |  | IC50 | > 5 µM
CC(=O)C(C)O (centres unmarked) | uncharacterized protein (Drosophila suzukii, UniProt A0AB39ZGK5) | binding, bis-ANS competition fluorescence |  | pH 7.4, added: bis-ANS |  | IC50 | > 50 µM
CCc1cc(NC(=O)COc2cccc(Cl)c2Cl)n(CC(F)(F)F)n1 | Kir3.1/Kir3.2 | activator, thallium flux | HEK293 |  |  | EC50 | 0.603 µM
CC(C)(C)c1cnc(CSc2cnc(NC(=O)C3CCN(C(=O)CCCCCCCCCCN4Cc5cc6c(cc5C4)C(=O)N(C4CCC(=O)NC4=O)C6=O)CC3)s2)o1 (centres unmarked) | CDK9 | degrader, Western blot | TC-71 |  |  | DC50 | 0.0147 ± 0.0033 µM
O=C(O)CC1Oc2ccccc2NC1=O (centres unmarked) | USP51 ZnF-UBD domain |  |  |  |  | Kd | > 1000 µM
O=C(CNc1cccc2c1C(=O)N(C1CCC(=O)NC1=O)C2=O)NCCCCCCN1CCc2c(c3ccccc3n2Cc2ccc(C(=O)NO)cc2)C1 (centres unmarked) | HDAC10 | degrader, western blot | MM1.S cells | 24 h |  | DC50 | 0.029 ± 0.0011 µM
CCc1cc(NC(=O)COc2ccc(Cl)cc2Cl)n(C2CCOCC2)n1 | Kir3.1/Kir3.2 | activator, thallium flux | HEK293 |  |  | EC50 | 0.097 µM
O=C(O)CNC(=O)c1ccc(C(=O)N2CCC(c3ccc(Cl)cc3)CC2)cn1 | USP51 ZnF-UBD domain |  |  |  |  | Kd | > 1000 µM

SMILES | target | assay | system | setting | how to read | quantity | result
CCCCCCCCCCCCCCCCCCCCCCC | uncharacterized protein (Drosophila suzukii, UniProt A0AB39ZGK5) | binding, bis-ANS competition fluorescence |  | pH 7.4, added: bis-ANS |  | IC50 | > 50 µM
Cc1cc(NC(=O)C2CCc3cc(Cl)ccc3O2)n(C2CCS(=O)(=O)C2)n1 (centres unmarked) | Kir3.1/Kir3.2 | activator, thallium flux | HEK293 |  |  | EC50 | 3.68 µM
CC(C)(C)c1cnc(CSc2cnc(NC(=O)C3CCN(C(=O)CCCCCCCN4Cc5cc6c(cc5C4)C(=O)N(C4CCC(=O)NC4=O)C6=O)CC3)s2)o1 (centres unmarked) | CDK9 | degrader, Western blot | TC-71 |  |  | DC50 | 0.0035 ± 0.0007 µM
CCCCC[C@H](O)/C=C/[C@H]1[C@H](O)CC(=O)[C@@H]1C/C=C\CCCC(=O)O | PTGER1 (Homo sapiens, UniProt P34995, F334L/G92T) | IP1 accumulation, agonist | AD293 |  |  | EC50 | 0.00815 µM
Oc1cccc(C(Nc2nccs2)c2ccc3cccnc3c2O)c1 (centres unmarked) | GAP50 | binding, surface plasmon resonance |  | 1:1 binding model |  | Kd | 5.77 µM
CC(C)(C)c1cnc(CSc2cnc(NC(=O)C3CCN(C(=O)CCCCCCCCCN4Cc5cc6c(cc5C4)C(=O)N(C4CCC(=O)NC4=O)C6=O)CC3)s2)o1 (centres unmarked) | CDK9 | degrader, Western blot | TC-71 |  |  | DC50 | 0.0102 ± 0.0045 µM
COc1ccc2nc(/C=C/c3ccc(N(C)C)cc3)sc2c1 | Microtubule-associated protein tau, paired helical filaments (MAPT, Homo sapiens, UniProt P10636) | binding | authentic PHF 1 µM | added: thioflavin S |  | AC50 | > 10 µM
c1ccc(Oc2ccc(-c3cc(C4CCOCC4)[nH]n3)cc2)cc1 | GAP50 | binding, surface plasmon resonance |  | 1:1 binding model |  | Kd | 14.3 µM
O=C(O)CCn1ccccc1=O | USP51 ZnF-UBD domain |  |  |  |  | Kd | > 1000 µM
Cc1cc(C)cc(COc2ccc3c(C)c(CCC(=O)O)c(=O)oc3c2C)c1 | GAP50 | binding, surface plasmon resonance |  | 1:1 binding model |  | Kd | 26.6 µM
CCc1cc(NC(=O)COc2cccc(Cl)c2Cl)n(C2CCC(F)(F)CC2)n1 | Kir3.1/Kir3.2 | activator, thallium flux | HEK293 |  |  | EC50 | 0.068 µM
CC(C)=CCCC(C)CCO (centres unmarked) | uncharacterized protein (Bradysia odoriphaga, UniProt A0A2S0X9G4) | binding, competitive fluorescence displacement |  |  |  | Ki | > 50 µM
O=C(O)CCc1ccc2c(c1)OCO2 | USP51 ZnF-UBD domain |  |  |  |  | Kd | > 1000 µM
CC(C)(C)c1cnc(CSc2cnc(NC(=O)C3CCN(C(=O)CCCCCCCCCCCN4Cc5cc6c(cc5C4)C(=O)N(C4CCC(=O)NC4=O)C6=O)CC3)s2)o1 (centres unmarked) | CDK9 | degrader, Western blot | TC-71 |  |  | DC50 | 0.0076 ± 0.0038 µM
COc1ccc([C@@H]2CC(c3cccs3)=NN2C(=O)c2ccco2)cc1OC | GAP50 | binding, surface plasmon resonance |  | 1:1 binding model |  | Kd | 55.1 µM
CN1CCN(c2ccc(Nc3ncc4cc(C#N)c(=O)n(C5CCCC5)c4n3)cc2)CC1 | CAMKK2 (Homo sapiens, UniProt Q96RR4) |  |  |  |  | IC50 | 1.53 µM
O=C(COc1ccc(Cl)cc1Cl)Nc1cc(C2CCC2)nn1C1CCC(F)(F)CC1 | Kir3.1/Kir3.2 | activator, thallium flux | HEK293 |  |  | EC50 | 0.45 µM
Cc1ccc(C(=O)O)cc1S(=O)(=O)Nc1cccc(C(=O)CCC(=O)O)c1 | USP51 ZnF-UBD domain |  |  |  |  | Kd | > 1000 µM
CC[N+]1(C/C2=C/CCCCCC2)CCC(NC(=O)C2c3cc(Cl)ccc3Oc3ccc(Cl)cc32)CC1 (centres unmarked) | GAP50 | binding, surface plasmon resonance |  | 1:1 binding model |  | Kd | 12 µM
Cc1cc(NC(=O)C2CCc3ccccc3O2)n(C2CCS(=O)(=O)C2)n1 (centres unmarked) | Kir3.1/Kir3.2 | activator, thallium flux | HEK293 |  |  | EC50 | > 10 µM
CNC(=O)[C@@H]1Cc2c([nH]c3cc(Cl)ccc23)C2(CCN(CCc3ccccc3)CC2)N1 | GAP50 | binding, surface plasmon resonance |  | 1:1 binding model |  | Kd | 65.3 µM
NC(=O)c1ccc[n+]([C@@H]2O[C@H](COP(=O)(O)OP(=O)(O)OC[C@H]3O[C@@H](n4cnc5c(N)ncnc54)[C@H](OP(=O)(O)O)[C@@H]3O)[C@@H](O)[C@H]2O)c1 | NADPH--cytochrome P450 reductase (Rattus norvegicus, UniProt P00388, del2-56/del675-676) | cytochrome c reduction, inhibitor |  | added: NADPH |  | Ki | 71.7 ± 7.1 µM

A few entries again:
SMILES | target | assay | system | setting | how to read | quantity | result
O=C(Nc1nnc(-c2ccc(Cl)s2)o1)c1ccc(Cl)s1 | GAP50 | binding, surface plasmon resonance |  | 1:1 binding model |  | Kd | 63.2 µM
COc1ccc([C@@H]2CC(c3cccs3)=NN2C(=O)c2ccco2)cc1OC | GAP50 | binding, surface plasmon resonance |  | 1:1 binding model |  | Kd | 55.1 µM
CCc1cc(NC(=O)COc2cccc(Cl)c2Cl)n(CC(F)(F)F)n1 | Kir3.1/Kir3.2 | activator, thallium flux | HEK293 |  |  | EC50 | 0.603 µM
O=C(O)CCC(=O)c1ccc(S(=O)(=O)N2CCCC2)cc1 | USP51 ZnF-UBD domain |  |  |  |  | Kd | > 1000 µM
COc1cc[nH]c1/C=C1\C(=O)Nc2ccc([N+](=O)[O-])c(N3CC[C@@H](O)C3)c21 | CMGC kinase panel | enzyme activity, KinaseProfiler |  | 1 µM | relative to: DMSO | remaining activity | < 50%
CC[C@@H]1[C@H](F)C(=O)N[C@@H]1COc1nccc2cc(C(N)=O)c(OC)cc12 | CAMK1D (Homo sapiens, UniProt Q8IU85) | ATP-site probe binding, ActivX profiling | THP-1 cell lysate | Lys2 site |  | IC50 | > 5 µM
